Measured values from different studies.
Each numbered part is a random draw from the data of one study; scales do not carry over between parts. “And” joins repeats or separate records; there may be more than shown.
Sequence of UniProt Q52WX2 (whole entry, looked up): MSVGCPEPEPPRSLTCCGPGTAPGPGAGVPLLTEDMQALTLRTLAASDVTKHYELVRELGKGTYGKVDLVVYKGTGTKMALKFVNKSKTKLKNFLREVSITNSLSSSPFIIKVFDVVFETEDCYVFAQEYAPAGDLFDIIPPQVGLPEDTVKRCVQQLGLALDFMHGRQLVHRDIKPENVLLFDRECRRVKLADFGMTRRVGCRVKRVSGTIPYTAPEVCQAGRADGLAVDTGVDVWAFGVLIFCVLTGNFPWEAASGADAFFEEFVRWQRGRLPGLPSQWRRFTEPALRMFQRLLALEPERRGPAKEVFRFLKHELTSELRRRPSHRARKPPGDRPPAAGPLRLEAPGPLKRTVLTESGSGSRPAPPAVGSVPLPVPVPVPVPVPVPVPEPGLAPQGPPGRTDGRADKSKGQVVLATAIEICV
Sequence of UniProt Q12851 (whole entry, looked up): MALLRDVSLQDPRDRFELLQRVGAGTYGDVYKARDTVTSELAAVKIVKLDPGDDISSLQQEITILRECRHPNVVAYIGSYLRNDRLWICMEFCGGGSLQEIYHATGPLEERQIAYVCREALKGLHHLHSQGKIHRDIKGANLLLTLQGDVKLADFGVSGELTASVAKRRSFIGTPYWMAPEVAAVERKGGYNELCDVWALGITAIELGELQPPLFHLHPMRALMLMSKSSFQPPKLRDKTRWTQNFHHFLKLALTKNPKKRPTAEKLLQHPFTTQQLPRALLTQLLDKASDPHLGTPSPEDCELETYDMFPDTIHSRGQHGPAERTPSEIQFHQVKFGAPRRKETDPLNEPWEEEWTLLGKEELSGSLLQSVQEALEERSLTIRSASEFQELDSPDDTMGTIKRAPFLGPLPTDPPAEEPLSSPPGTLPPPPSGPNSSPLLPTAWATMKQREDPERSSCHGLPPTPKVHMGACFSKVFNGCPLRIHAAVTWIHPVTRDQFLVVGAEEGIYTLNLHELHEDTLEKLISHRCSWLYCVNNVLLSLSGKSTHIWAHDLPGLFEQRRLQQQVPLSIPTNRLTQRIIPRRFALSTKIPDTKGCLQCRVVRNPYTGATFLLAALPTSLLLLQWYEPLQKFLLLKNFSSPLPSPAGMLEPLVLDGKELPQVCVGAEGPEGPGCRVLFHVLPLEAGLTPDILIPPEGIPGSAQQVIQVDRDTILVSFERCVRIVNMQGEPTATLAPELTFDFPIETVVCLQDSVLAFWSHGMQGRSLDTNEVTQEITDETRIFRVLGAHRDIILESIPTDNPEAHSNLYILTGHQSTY
Sequence of UniProt Q6P3R8 (whole entry, looked up): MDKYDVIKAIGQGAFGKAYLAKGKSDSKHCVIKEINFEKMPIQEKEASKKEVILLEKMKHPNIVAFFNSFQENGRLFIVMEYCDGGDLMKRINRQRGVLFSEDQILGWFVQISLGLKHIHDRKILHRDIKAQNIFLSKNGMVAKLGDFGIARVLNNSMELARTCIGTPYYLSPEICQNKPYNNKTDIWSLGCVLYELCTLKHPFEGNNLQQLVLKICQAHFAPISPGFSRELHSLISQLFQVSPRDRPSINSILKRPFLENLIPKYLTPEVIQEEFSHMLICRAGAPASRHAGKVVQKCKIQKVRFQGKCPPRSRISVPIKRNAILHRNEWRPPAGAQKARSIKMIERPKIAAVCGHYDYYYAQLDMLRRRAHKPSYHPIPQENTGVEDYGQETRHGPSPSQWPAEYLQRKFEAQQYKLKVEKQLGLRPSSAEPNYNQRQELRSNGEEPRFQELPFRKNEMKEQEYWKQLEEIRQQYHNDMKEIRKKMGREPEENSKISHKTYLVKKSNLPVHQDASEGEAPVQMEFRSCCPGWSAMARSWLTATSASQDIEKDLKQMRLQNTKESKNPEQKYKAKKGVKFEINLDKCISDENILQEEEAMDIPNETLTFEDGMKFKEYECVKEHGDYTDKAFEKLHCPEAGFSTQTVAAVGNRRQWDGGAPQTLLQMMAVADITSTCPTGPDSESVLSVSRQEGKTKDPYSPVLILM
Sequence of UniProt Q14004 (whole entry, looked up): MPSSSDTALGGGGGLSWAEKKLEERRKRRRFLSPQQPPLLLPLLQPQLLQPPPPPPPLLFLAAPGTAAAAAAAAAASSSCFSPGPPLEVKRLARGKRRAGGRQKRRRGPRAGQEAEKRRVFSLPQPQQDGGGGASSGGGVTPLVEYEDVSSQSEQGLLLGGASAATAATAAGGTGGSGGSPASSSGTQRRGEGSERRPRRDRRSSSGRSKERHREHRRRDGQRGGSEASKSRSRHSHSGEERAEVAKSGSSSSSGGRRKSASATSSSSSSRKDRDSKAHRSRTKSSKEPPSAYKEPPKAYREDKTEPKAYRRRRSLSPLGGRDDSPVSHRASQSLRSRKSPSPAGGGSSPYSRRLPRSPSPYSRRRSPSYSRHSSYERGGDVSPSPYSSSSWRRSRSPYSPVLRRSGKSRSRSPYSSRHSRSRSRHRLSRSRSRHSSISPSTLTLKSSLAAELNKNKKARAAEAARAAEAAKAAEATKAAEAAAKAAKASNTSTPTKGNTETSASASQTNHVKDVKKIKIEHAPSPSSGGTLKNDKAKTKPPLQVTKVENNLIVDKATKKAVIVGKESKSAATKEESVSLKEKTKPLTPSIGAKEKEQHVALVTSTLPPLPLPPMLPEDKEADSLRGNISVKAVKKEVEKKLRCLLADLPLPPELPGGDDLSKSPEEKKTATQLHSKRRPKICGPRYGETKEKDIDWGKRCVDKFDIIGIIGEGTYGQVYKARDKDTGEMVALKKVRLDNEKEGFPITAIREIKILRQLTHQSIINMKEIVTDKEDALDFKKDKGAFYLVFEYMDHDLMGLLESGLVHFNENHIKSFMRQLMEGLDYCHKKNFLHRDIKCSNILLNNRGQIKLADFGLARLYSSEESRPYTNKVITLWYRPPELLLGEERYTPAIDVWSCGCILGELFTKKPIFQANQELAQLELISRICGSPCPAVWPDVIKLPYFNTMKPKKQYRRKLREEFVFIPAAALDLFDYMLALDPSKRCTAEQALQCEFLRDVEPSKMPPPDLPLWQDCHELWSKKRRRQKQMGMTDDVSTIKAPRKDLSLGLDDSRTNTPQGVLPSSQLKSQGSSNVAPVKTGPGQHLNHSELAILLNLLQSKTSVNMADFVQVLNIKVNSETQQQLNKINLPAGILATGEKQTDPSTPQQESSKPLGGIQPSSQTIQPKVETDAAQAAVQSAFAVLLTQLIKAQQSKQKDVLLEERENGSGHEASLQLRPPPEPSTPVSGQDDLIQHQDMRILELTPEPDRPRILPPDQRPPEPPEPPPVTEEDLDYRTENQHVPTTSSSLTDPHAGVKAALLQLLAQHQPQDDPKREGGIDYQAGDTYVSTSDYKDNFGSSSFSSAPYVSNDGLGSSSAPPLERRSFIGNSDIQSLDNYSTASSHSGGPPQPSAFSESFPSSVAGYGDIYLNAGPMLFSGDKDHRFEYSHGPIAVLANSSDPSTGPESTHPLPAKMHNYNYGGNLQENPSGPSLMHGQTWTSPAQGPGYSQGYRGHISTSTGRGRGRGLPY
Sequence of UniProt O75676 (whole entry, looked up): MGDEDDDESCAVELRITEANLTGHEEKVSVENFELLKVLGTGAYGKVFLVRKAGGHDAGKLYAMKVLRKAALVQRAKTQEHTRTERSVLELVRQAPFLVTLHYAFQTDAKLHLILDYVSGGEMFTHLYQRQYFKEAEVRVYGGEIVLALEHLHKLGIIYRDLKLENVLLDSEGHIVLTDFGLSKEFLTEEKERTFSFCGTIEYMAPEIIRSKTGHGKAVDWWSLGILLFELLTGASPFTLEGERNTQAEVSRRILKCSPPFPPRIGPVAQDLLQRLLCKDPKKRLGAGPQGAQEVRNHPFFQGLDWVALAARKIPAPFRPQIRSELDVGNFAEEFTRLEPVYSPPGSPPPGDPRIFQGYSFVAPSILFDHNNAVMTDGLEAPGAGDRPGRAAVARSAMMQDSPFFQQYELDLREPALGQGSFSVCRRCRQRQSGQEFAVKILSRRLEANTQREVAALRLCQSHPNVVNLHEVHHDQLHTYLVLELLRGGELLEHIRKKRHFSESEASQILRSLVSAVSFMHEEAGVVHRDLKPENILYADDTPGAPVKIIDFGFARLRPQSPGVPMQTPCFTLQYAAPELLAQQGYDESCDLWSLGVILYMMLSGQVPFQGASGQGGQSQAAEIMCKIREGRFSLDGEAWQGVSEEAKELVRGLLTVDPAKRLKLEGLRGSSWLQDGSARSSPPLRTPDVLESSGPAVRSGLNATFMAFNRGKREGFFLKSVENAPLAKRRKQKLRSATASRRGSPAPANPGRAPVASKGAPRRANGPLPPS

Set 1 — effect on: cell-free assay; method: competition with immobilised ligand; tested at: 1 µM
SMILES: Nc1cnc(N2CCc3cc(S(=O)(=O)Nc4c(F)cc(Cl)cc4F)cc(N4CCCC4=O)c32)nc1
target	remaining binding
Bone morphogenetic protein receptor type-1B (BMPR1B, Homo sapiens, UniProt O00238)	100%
Ribosomal protein S6 kinase alpha-4, N-terminal kinase domain (RPS6KA4, Homo sapiens, UniProt O75676)	100%
Dual specificity protein kinase TTK (TTK, Homo sapiens, UniProt P33981)	90%
Serine/threonine-protein kinase D3 (PRKD3, Homo sapiens, UniProt O94806)	88%
Proto-oncogene tyrosine-protein kinase Src (SRC, Homo sapiens, UniProt P12931)	99%
Serine/threonine-protein kinase MRCK beta (CDC42BPB, Homo sapiens, UniProt Q9Y5S2)	95%
Serine/threonine-protein kinase haspin (HASPIN, Homo sapiens, UniProt Q8TF76)	100%
Ephrin type-A receptor 8 (EPHA8, Homo sapiens, UniProt P29322)	100%
Serine/threonine-protein kinase WNK3 (WNK3, Homo sapiens, UniProt Q9BYP7)	100%
Receptor-type tyrosine-protein kinase FLT3 (FLT3, Homo sapiens, UniProt P36888, D835V/ITD)	100%
Maternal embryonic leucine zipper kinase (MELK, Homo sapiens, UniProt Q14680)	90%
Receptor-type tyrosine-protein kinase FLT3, autoinhibited (FLT3, Homo sapiens, UniProt P36888)	91%
Mitogen-activated protein kinase kinase kinase kinase 2 (MAP4K2, Homo sapiens, UniProt Q12851)	90%
Cyclin-dependent kinase 13 (CDK13, Homo sapiens, UniProt Q14004)	100%
Serine/threonine-protein kinase SBK1 (SBK1, Homo sapiens, UniProt Q52WX2)	83%
Serine/threonine-protein kinase Nek5 (NEK5, Homo sapiens, UniProt Q6P3R8)	100%
RAC-beta serine/threonine-protein kinase (AKT2, Homo sapiens, UniProt P31751)	100%

Set 2 — organism: Sarcocystis neurona; effect on: parasite growth; tested at: 10 µM; time: 96 h; baseline: untreated
Compound	log2 fold change
CC(C)(C)NC(=O)[C@@H]1C[C@@H]2CCCC[C@@H]2CN1C[C@@H](O)[C@H](Cc1ccccc1)NC(=O)[C@H](CC(N)=O)NC(=O)c1ccc2ccccc2n1	-0.33
CCN(CC)CCOc1ccc(C(=C(Cl)c2ccccc2)c2ccccc2)cc1	-0.0452
CC1=C(CC(=O)O)c2cc(F)ccc2/C1=C\c1ccc([S+](C)[O-])cc1 (stereo not drawn)	0.4
CCC1=C(C)CN(C(=O)NCCc2ccc(S(=O)(=O)NC(=O)N[C@H]3CC[C@H](C)CC3)cc2)C1=O	0.46
CCc1c(C)[nH]c2c1C(=O)C(CN1CCOCC1)CC2 (stereo not drawn)	0.33
NS(=O)(=O)c1cc(C(=O)O)c(NCc2ccco2)cc1Cl	0.3
CC(C)(C(=O)O)c1ccc(C(O)CCCN2CCC(C(O)(c3ccccc3)c3ccccc3)CC2)cc1 (stereo not drawn)	0.36
CCCCC(=O)N(Cc1ccc(-c2ccccc2-c2nnn[nH]2)cc1)[C@H](C(=O)O)C(C)C	0.23

Set 3 — cell line: A-375; tested at: 100 µM; time: 18 h
SMILES	viability [%]
CNNCc1ccc(C(=O)NC(C)C)cc1	104
COc1ccc(-c2nc3ccc(C4=NNC(=O)CC4C)cc3[nH]2)cc1 (stereo not drawn)	28.3
CNC[C@H](O)c1ccc(O)c(O)c1	141
CN(C)CCCN1c2ccccc2Sc2ccccc21	7.89
CNCCCN1c2ccccc2CCc2ccccc21	10
CNCC[C@@H](Oc1ccccc1C)c1ccccc1	62.2
CCc1cc2c(cc1N1CCC(N3CCOCC3)CC1)C(C)(C)c1[nH]c3cc(C#N)ccc3c1C2=O	12.9
COc1cc(/C=C/C(=O)O)ccc1O	106
CCOc1nc2cccc(C(=O)O)c2n1Cc1ccc(-c2ccccc2-c2noc(=O)[nH]2)cc1	96.1
Clc1ccc(C(Cn2ccnc2)OCc2csc3c(Cl)cccc23)c(Cl)c1 (stereo not drawn)	10.4
Cn1c(=O)c2[nH]c(Br)nc2n(C)c1=O	99.7
CC1(C)S[C@@H]2[C@H](NC(=O)Cc3ccccc3)C(=O)N2[C@H]1C(=O)O	106

Mixed results
SMILES	target or system	system	conditions	how to read	endpoint	result
c1ccc2c(-c3nn4c(-c5ccncc5)nnc4s3)c[nH]c2c1	α-galactosidase (human, wild type)	healthy dermal fibroblasts	0.5 µM, unit not given	baseline: DMSO	remaining activity	1.49 and 1.62 and 1.53 and 1.31 and 1.27 and 1.63 and 1.4 and 1.19
CCC[C@@H]1NC(=O)CSC[C@@H](C(=O)OCC)N(C)C(=O)[C@H](CC(C)C)NC(=O)[C@H](C)N(C)C(=O)[C@@H](CC(C)C)NC(=O)[C@H](C)N(C)C(=O)[C@H]2CCCN2C(=O)[C@@H](CC(C)C)NC(=O)CN(CCC)C1=O		hydrocarbon/water			logD	1.88
